{"data": "Experimental data from different studies", "CA12": "Carbonic anhydrase 12 (CA12, Homo sapiens, UniProt O43570)", "Capn2": "Calpain-2 catalytic subunit (Capn2, Mus musculus, UniProt O08529)", "Chromobox protein homolog 8": "Chromobox protein homolog 8 (Homo sapiens, UniProt Q9HC52)", "note": "Lines come from different studies, so protocols differ.", "sequence of UniProt Q9HC52 (whole entry, looked up)": "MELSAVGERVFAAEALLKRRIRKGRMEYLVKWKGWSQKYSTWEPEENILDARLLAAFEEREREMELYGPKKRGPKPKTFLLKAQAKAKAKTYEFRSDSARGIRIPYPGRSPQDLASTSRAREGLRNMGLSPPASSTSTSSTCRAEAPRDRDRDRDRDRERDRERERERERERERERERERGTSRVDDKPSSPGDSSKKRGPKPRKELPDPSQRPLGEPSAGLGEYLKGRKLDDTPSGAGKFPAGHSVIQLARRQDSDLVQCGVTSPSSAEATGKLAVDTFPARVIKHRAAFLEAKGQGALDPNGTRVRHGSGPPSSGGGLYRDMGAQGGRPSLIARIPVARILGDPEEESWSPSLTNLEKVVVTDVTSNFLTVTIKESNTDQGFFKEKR", "sequence of UniProt O08529 (whole entry, looked up)": "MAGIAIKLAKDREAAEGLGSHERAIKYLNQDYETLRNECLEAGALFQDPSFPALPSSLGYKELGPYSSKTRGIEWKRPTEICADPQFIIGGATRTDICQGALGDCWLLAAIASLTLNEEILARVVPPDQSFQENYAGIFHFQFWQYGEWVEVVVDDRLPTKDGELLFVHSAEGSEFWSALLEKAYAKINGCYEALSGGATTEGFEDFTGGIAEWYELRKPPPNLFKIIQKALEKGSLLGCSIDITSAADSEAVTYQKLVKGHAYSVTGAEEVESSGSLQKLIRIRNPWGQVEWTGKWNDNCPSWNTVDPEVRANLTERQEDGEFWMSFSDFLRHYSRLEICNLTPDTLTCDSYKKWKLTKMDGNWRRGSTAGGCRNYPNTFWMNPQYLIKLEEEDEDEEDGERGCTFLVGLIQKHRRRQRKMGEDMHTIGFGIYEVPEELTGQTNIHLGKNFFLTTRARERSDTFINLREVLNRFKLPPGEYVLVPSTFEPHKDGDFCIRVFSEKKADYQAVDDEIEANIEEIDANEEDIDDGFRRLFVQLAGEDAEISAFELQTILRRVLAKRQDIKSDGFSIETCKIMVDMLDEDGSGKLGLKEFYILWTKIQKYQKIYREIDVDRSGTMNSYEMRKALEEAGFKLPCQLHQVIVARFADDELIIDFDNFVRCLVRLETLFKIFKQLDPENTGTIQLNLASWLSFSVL", "sequence of UniProt O43570 (whole entry, looked up)": "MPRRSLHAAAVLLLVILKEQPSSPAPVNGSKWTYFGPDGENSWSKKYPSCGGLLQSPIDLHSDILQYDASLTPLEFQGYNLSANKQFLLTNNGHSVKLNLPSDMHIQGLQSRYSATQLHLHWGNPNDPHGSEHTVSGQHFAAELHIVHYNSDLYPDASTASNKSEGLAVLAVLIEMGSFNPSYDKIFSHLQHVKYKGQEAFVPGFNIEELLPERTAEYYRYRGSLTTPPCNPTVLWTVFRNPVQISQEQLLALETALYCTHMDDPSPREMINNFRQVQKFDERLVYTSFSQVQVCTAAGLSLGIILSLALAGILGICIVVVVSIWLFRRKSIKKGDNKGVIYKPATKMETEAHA", "sequence of UniProt P00742 (whole entry, looked up)": "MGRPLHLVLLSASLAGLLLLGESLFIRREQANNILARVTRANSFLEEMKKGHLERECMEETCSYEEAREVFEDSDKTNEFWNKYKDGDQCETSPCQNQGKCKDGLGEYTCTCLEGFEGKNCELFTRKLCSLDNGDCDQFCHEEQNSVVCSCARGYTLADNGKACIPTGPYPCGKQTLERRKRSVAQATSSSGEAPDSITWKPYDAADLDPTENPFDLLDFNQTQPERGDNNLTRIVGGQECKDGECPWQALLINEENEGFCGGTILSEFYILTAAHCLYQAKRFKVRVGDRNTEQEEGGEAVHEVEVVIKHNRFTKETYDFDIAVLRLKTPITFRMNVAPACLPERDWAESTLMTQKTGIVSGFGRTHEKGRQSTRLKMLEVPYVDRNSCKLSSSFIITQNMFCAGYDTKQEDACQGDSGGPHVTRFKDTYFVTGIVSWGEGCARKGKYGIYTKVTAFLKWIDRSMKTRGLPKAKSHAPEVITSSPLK", "sequence of UniProt P08173 (whole entry, looked up)": "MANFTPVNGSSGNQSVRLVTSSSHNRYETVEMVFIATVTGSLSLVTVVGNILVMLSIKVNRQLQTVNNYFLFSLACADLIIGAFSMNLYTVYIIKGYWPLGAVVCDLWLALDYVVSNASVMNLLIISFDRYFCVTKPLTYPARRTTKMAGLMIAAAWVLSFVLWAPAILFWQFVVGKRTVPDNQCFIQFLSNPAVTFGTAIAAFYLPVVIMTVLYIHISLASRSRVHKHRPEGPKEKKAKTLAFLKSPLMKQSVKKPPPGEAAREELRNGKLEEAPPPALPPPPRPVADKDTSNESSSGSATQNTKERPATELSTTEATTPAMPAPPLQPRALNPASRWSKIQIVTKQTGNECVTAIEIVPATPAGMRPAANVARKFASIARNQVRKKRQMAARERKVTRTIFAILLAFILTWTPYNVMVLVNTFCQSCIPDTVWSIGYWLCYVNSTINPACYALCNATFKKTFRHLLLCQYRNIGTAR", "sequence of UniProt Q9NR56 (whole entry, looked up)": "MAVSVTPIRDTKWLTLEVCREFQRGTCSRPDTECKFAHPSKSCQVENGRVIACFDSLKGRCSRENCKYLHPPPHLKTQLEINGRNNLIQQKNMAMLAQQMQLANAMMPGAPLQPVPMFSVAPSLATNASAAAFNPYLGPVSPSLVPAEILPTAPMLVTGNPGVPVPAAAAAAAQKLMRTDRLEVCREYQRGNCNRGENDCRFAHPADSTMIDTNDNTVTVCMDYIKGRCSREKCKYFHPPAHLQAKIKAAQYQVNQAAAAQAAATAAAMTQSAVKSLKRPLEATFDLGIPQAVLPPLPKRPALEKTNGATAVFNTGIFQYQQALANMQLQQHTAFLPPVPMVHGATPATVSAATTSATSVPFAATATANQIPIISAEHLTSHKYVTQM", "sequence of UniProt P10636 (whole entry, looked up)": "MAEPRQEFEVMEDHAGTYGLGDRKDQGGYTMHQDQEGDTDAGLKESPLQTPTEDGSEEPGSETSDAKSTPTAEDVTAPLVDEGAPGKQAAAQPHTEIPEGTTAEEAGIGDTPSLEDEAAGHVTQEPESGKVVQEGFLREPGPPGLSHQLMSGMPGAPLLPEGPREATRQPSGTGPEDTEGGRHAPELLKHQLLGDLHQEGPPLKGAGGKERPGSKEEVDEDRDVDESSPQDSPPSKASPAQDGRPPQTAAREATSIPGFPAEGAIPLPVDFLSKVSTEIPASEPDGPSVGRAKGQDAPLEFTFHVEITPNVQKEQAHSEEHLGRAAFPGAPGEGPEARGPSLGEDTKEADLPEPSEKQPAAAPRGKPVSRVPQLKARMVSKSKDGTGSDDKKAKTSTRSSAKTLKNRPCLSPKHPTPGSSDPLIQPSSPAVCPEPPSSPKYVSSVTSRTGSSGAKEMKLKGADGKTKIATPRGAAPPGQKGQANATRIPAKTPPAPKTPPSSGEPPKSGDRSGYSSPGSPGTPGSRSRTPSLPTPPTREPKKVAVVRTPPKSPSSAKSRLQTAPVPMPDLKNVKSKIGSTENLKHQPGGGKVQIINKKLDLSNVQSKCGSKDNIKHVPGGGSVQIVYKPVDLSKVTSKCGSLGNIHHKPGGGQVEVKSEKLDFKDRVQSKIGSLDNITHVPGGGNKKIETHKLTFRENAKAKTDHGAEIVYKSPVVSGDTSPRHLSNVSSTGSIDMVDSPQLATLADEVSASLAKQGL", "sequence of UniProt O95503 (whole entry, looked up)": "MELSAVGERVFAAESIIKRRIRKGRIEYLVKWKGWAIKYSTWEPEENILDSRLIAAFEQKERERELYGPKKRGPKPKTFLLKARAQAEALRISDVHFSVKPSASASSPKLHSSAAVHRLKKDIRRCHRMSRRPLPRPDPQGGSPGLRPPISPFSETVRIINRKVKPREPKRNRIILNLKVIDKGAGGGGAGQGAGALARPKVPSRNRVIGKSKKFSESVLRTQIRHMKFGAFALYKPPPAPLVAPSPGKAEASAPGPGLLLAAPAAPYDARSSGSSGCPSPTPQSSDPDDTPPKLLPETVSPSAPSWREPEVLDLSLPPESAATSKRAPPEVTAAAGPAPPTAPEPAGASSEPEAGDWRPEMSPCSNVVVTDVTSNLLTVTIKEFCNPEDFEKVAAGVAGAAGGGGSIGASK", "sequence of UniProt Q02127 (whole entry, looked up)": "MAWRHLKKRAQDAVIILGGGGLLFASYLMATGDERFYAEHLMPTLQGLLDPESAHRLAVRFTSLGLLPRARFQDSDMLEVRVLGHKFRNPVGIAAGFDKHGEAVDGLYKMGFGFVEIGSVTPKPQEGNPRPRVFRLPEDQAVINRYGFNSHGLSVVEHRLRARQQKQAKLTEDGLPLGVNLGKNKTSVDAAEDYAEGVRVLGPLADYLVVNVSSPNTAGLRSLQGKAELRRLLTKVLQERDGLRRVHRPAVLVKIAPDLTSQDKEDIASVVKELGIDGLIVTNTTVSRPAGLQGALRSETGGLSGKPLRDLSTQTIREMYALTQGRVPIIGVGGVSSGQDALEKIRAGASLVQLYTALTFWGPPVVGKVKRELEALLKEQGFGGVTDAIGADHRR"}
{"SMILES": "NS(=O)(=O)c1c(F)c(F)cc(F)c1N[C@H]1CCCc2ccccc21", "target": "CA12", "assay": "thermal shift", "scale": "baseline: Kd CA XII over Kd CA II", "selectivity ratio": 4.5}
{"SMILES": "COc1ccc(/C(C)=N/NC(=O)CSc2nc3ccccc3c(=O)n2CCc2ccc(S(N)(=O)=O)cc2)cc1", "target": "CA12", "assay": "inhibitor, stopped-flow", "scale": "baseline: Ki hCA I over Ki hCA XII", "selectivity ratio": 10.9}
{"SMILES": "NS(=O)(=O)c1c(F)c(F)c(S(=O)(=O)CCO)c(NCc2ccccc2)c1F", "target": "CA12", "assay": "thermal shift", "scale": "baseline: Kd CA XII over Kd CA II", "selectivity ratio": 0.3}
{"SMILES": "C/C(=N\\NC(=O)CSc1nc2ccccc2c(=O)n1CCc1ccc(S(N)(=O)=O)cc1)c1ccccc1", "target": "CA12", "assay": "inhibitor, stopped-flow", "scale": "baseline: Ki hCA I over Ki hCA XII", "selectivity ratio": 9.79}
{"SMILES": "NS(=O)(=O)c1ccc(Nc2nc3nccc(-c4ccc5ccccc5c4)n3n2)cc1", "target": "CA12", "assay": "stopped-flow CO2 hydrase", "scale": "baseline: Ki hCA I over Ki CA12", "selectivity ratio": 94}
{"SMILES": "CCC(NC(=O)C(CC(C)C)NC(=O)NCc1ccc(C#N)cc1)C(=O)C(=O)NCc1cc(OC)cc(OC)c1 (stereo not drawn)", "target": "Capn2", "test system": "mouse pons-cerebellum membranes", "conditions": "added: calcium 2 mM", "scale": "baseline: IC50 calpain-1 over calpain-2", "selectivity ratio": 2.4}
{"SMILES": "CN1CCC=C(c2nsnc2OCCCN2CCN(CCCCC3CCN(CC(=O)N4c5ccccc5NC(=O)c5ccccc54)CC3)CC2)C1", "target": "CHRM4 (Homo sapiens, UniProt P08173)", "assay": "radioligand competition binding", "test system": "CHO cells", "scale": "baseline: Ki M4 over Ki M2", "selectivity ratio": 29}
{"SMILES": "C[C@@H](N)C1CCN(S(=O)(=O)c2cccc3cnccc23)CC1", "target": "ROCK2 (Homo sapiens, UniProt O75116)", "assay": "enzyme activity, inhibitor, radiometric filter binding", "conditions": "added: ATP at Km", "scale": "baseline: IC50 ROCK1 over IC50 target", "selectivity ratio": "44 fold"}
{"SMILES": "NS(=O)(=O)c1c(F)c(F)c(S(=O)(=O)CCc2ccccc2)c(NCc2ccccc2)c1F", "target": "CA12", "assay": "thermal shift", "scale": "baseline: Kd CA XII over Kd CA II", "selectivity ratio": 6}
{"SMILES": "COc1cccc(/C=N/NC(=O)CSc2nc3ccccc3c(=O)n2CCc2ccc(S(N)(=O)=O)cc2)c1", "target": "CA12", "assay": "inhibitor, stopped-flow", "scale": "baseline: Ki hCA II over Ki hCA XII", "selectivity ratio": 1.09}
{"SMILES": "CN(C)CCNC(=O)c1cccc2c(NCCCCc3c(N)nc(N)nc3N)c3ccccc3nc12", "target": "Muscleblind-like protein 1, with (CCUG)6 RNA (Homo sapiens, UniProt Q9NR56)", "assay": "RNA-protein binding, inhibitor, gel shift", "scale": "baseline: MBNL1-(CCUG)6 over MBNL1-(CUG)12", "selectivity ratio": "~7 fold"}
{"SMILES": "COc1ccccc1/C=N/NC(=O)CSc1nc2ccccc2c(=O)n1CCc1ccc(S(N)(=O)=O)cc1", "target": "CA12", "assay": "inhibitor, stopped-flow", "scale": "baseline: Ki hCA II over Ki hCA XII", "selectivity ratio": 2.85}
{"SMILES": "CC(C)[C@H](NC(=O)[C@H](Cc1ccccc1)NC(=O)c1ccc(C(C)(C)C)cc1)C(=O)N[C@@H](CCCN1CCOCC1)C(=O)N[C@@H](CCCCN(C)C1CC2CCC1C2)C(=O)N[C@@H](CO)C(N)=O (stereo partly drawn)", "target": "Chromobox protein homolog 8", "assay": "TR-FRET", "scale": "baseline: CBX8 over CBX7", "selectivity ratio": "58 fold"}
{"SMILES": "NS(=O)(=O)c1c(F)c(F)c(S(=O)(=O)CCO)c(N[C@H]2CCc3ccccc32)c1F", "target": "CA12", "assay": "thermal shift", "scale": "baseline: Kd CA XII over Kd CA II", "selectivity ratio": 0.5}
{"SMILES": "CCC(NC(=O)C(CC(C)C)NC(=O)NCc1ccccc1)C(=O)C(=O)NCc1cccc(OC)c1 (stereo not drawn)", "target": "Capn2", "test system": "mouse pons-cerebellum membranes", "conditions": "added: calcium 2 mM", "scale": "baseline: IC50 calpain-1 over calpain-2", "selectivity ratio": 9.2}
{"SMILES": "CN1C[C@H](c2cccc(C(F)(F)F)c2)[C@@H](C(=O)Nc2ccccc2F)C1=O", "target": "DHODH (Homo sapiens, UniProt Q02127)", "assay": "enzyme activity, DCPIP colorimetric", "scale": "baseline: IC50 human over Setaria italica", "selectivity ratio": "~100 fold"}
{"SMILES": "CCC(NC(=O)C(CC(C)C)NC(=O)CCc1ccccc1)C(=O)C(=O)NCc1cc(OC)cc(OC)c1 (stereo not drawn)", "target": "Capn2", "test system": "mouse pons-cerebellum membranes", "conditions": "added: calcium 2 mM", "scale": "baseline: IC50 calpain-1 over calpain-2", "selectivity ratio": 14.9}
{"SMILES": "OC(Cc1cc(-c2ccc(C(O)C(F)(F)F)s2)sc1-c1ccc(-c2sc(-c3ccc(C(O)C(F)(F)F)s3)cc2CC(O)C(F)(F)F)s1)C(F)(F)F (stereo not drawn)", "target": "Microtubule-associated protein tau, 0N4R isoform, aggregated (MAPT, Homo sapiens, UniProt P10636)", "conditions": "tau 20% sucrose fraction, Aβ40 200 min", "scale": "baseline: Kd Aβ40 over Kd tau", "selectivity ratio": "50 fold"}
{"SMILES": "NS(=O)(=O)c1cc(C(=O)NCCCC(=O)O)c(NC2CCCCC2)cc1Cl", "target": "CA12", "assay": "fluorescent thermal shift", "scale": "baseline: Kd other CA isoforms over CA XII", "selectivity ratio": "≤ 10000 fold"}
{"SMILES": "COc1cc(-c2ccnc3nc(Nc4ccc(S(N)(=O)=O)cc4)nn23)cc(OC)c1OC", "target": "CA12", "assay": "stopped-flow CO2 hydrase", "scale": "baseline: Ki hCA II over Ki CA12", "selectivity ratio": 5.3}
{"SMILES": "COc1cccc(/C(C)=N/NC(=O)CSc2nc3ccccc3c(=O)n2CCc2ccc(S(N)(=O)=O)cc2)c1", "target": "CA12", "assay": "inhibitor, stopped-flow", "scale": "baseline: Ki hCA II over Ki hCA XII", "selectivity ratio": 0.7}
{"SMILES": "CNc1c(F)c(S(N)(=O)=O)c(F)c(F)c1S(=O)(=O)CCc1ccccc1", "target": "CA12", "assay": "binding", "scale": "baseline: Kd CA II over Kd CA XII", "selectivity ratio": 49}
{"SMILES": "CCC(NC(=O)C(CC(C)C)NC(=O)CCc1ccccc1)C(=O)C(=O)NCc1cc(F)cc(OC)c1 (stereo not drawn)", "target": "Capn2", "test system": "mouse pons-cerebellum membranes", "conditions": "added: calcium 2 mM", "scale": "baseline: IC50 calpain-1 over calpain-2", "selectivity ratio": 31.7}
{"SMILES": "CCN(CC)CCCC[C@H](NC(=O)[C@@H](NC(=O)[C@H](C)NC(=O)[C@H](Cc1ccccc1)NC(=O)c1ccc(C(F)(F)F)cc1)C1CCCC1)C(=O)N[C@@H](CO)C(N)=O", "target": "Chromobox protein homolog 8", "assay": "competitive fluorescence polarization", "scale": "baseline: Cbx7 over Chromobox protein homolog 8", "selectivity ratio": "12 fold"}
{"SMILES": "NS(=O)(=O)c1c(F)c(F)c(SCCc2ccccc2)c(F)c1N1CCOCC1", "target": "CA12", "assay": "thermal shift", "scale": "baseline: Kd CA XII over Kd CA II", "selectivity ratio": 17}
{"SMILES": "Cc1ccc(C(=O)Nc2ccc(CP(=O)(O)O)cc2CP(=O)(O)O)cc1NC(=O)c1cccc(NC(=O)Nc2cccc(C(=O)Nc3cc(C(=O)Nc4ccc(CP(=O)(O)O)cc4CP(=O)(O)O)ccc3C)c2)c1", "target": "F10 (Homo sapiens, UniProt P00742)", "assay": "enzyme activity, inhibitor", "scale": "baseline: factor XIa over factor Xa", "selectivity ratio": "> 14 fold"}
{"SMILES": "C[C@H](NC(=O)[C@H](Cc1ccccc1)NC(=O)c1ccc(C(C)(C)C)cc1)C(=O)N[C@H](C(=O)N[C@@H](CCCC[N+](C)(C)C)C(=O)N[C@@H](CO)C(N)=O)C1CCCC1", "target": "Chromobox protein homolog 6 (Homo sapiens, UniProt O95503)", "assay": "competitive fluorescence polarization", "scale": "baseline: Cbx7 over Chromobox protein homolog 6", "selectivity ratio": "8.5 fold"}
{"SMILES": "CCC(NC(=O)C(CC(C)C)NC(=O)CCc1ccncc1)C(=O)C(=O)NCc1cc(OC)cc(OC)c1 (stereo not drawn)", "target": "Capn2", "test system": "mouse pons-cerebellum membranes", "conditions": "added: calcium 2 mM", "scale": "baseline: IC50 calpain-1 over calpain-2", "selectivity ratio": 2.1}
{"SMILES": "NS(=O)(=O)c1c(F)c(F)c(S(=O)(=O)CCc2ccccc2)c(N2CCOCC2)c1F", "target": "CA12", "assay": "thermal shift", "scale": "baseline: Kd CA XII over Kd CA II", "selectivity ratio": 125}
{"SMILES": "C[C@H](NC(=O)[C@H](Cc1ccccc1)NC(=O)c1ccc(C(F)(F)F)cc1)C(=O)N[C@H](C(=O)N[C@@H](CCCC[N+](C)(C)C)C(=O)N[C@@H](CO)C(N)=O)C1CCCC1", "target": "Chromobox protein homolog 8", "assay": "binding, isothermal titration calorimetry", "scale": "baseline: Cbx7 over Chromobox protein homolog 8 Kd", "selectivity ratio": "7.3 fold"}
{"note": "Excerpt of the above:"}
{"SMILES": "NS(=O)(=O)c1c(F)c(F)cc(F)c1N[C@H]1CCCc2ccccc21", "target": "CA12", "assay": "thermal shift", "scale": "baseline: Kd CA XII over Kd CA II", "selectivity ratio": 4.5}
{"SMILES": "CNc1c(F)c(S(N)(=O)=O)c(F)c(F)c1S(=O)(=O)CCc1ccccc1", "target": "CA12", "assay": "binding", "scale": "baseline: Kd CA II over Kd CA XII", "selectivity ratio": 49}
{"SMILES": "C[C@@H](N)C1CCN(S(=O)(=O)c2cccc3cnccc23)CC1", "target": "ROCK2 (Homo sapiens, UniProt O75116)", "assay": "enzyme activity, inhibitor, radiometric filter binding", "conditions": "added: ATP at Km", "scale": "baseline: IC50 ROCK1 over IC50 target", "selectivity ratio": "44 fold"}
{"SMILES": "NS(=O)(=O)c1c(F)c(F)c(SCCc2ccccc2)c(F)c1N1CCOCC1", "target": "CA12", "assay": "thermal shift", "scale": "baseline: Kd CA XII over Kd CA II", "selectivity ratio": 17}
